Measured values of several laboratories.
Compare with care: the assays were run in different laboratories. “And” joins repeats or separate records; there may be more than shown. ± marks the error that the study gave.
4'-phosphopantetheinyl transferase PptT: 4'-phosphopantetheinyl transferase PptT (Mycobacterium tuberculosis, UniProt O33336)
Chain of UniProt O33336 (whole entry, looked up): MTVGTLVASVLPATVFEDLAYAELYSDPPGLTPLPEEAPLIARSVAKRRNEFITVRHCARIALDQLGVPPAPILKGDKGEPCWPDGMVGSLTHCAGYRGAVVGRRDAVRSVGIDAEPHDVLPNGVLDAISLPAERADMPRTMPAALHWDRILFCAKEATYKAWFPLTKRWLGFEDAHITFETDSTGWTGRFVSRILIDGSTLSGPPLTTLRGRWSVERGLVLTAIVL
AMC4: Metacaspase-4 (AMC4, Arabidopsis thaliana, UniProt O64517)
Chain of UniProt O64517 (whole entry, looked up): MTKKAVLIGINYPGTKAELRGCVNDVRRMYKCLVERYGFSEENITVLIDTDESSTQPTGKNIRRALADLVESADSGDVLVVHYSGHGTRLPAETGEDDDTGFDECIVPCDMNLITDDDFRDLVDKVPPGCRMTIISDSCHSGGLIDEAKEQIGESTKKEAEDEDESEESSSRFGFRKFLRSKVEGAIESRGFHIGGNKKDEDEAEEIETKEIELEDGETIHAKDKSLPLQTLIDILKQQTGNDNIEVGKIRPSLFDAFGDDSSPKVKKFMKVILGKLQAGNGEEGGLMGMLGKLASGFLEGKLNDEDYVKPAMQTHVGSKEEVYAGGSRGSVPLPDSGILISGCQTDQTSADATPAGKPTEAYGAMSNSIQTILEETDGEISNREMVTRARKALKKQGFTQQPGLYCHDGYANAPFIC
Slc6a4: Sodium-dependent serotonin transporter (Slc6a4, Rattus norvegicus, UniProt P31652)
Chain of UniProt Q9HAC7 (whole entry, looked up): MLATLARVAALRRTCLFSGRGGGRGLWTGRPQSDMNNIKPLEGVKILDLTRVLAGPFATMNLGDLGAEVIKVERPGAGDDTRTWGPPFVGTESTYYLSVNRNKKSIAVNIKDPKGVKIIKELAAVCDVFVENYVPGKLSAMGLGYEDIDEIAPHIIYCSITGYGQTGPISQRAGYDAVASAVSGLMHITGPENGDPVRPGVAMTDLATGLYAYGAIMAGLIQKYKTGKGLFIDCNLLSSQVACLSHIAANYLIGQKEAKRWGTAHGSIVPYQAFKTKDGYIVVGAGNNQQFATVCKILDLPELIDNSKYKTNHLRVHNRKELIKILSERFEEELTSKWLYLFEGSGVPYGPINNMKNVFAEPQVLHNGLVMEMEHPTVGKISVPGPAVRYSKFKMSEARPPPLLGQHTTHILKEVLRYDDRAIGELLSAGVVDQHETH
Chain of UniProt Q13639 (whole entry, looked up): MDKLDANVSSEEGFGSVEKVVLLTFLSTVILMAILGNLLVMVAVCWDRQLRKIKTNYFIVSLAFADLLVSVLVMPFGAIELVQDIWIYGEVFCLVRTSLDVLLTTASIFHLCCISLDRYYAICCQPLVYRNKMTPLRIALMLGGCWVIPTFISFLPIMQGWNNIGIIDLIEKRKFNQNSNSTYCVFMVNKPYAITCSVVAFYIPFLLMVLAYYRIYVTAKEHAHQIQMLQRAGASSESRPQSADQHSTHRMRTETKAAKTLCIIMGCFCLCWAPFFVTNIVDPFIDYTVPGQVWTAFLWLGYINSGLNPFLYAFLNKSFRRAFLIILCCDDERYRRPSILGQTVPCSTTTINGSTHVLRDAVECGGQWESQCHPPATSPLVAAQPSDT
Chain of UniProt Q07157 (whole entry, looked up): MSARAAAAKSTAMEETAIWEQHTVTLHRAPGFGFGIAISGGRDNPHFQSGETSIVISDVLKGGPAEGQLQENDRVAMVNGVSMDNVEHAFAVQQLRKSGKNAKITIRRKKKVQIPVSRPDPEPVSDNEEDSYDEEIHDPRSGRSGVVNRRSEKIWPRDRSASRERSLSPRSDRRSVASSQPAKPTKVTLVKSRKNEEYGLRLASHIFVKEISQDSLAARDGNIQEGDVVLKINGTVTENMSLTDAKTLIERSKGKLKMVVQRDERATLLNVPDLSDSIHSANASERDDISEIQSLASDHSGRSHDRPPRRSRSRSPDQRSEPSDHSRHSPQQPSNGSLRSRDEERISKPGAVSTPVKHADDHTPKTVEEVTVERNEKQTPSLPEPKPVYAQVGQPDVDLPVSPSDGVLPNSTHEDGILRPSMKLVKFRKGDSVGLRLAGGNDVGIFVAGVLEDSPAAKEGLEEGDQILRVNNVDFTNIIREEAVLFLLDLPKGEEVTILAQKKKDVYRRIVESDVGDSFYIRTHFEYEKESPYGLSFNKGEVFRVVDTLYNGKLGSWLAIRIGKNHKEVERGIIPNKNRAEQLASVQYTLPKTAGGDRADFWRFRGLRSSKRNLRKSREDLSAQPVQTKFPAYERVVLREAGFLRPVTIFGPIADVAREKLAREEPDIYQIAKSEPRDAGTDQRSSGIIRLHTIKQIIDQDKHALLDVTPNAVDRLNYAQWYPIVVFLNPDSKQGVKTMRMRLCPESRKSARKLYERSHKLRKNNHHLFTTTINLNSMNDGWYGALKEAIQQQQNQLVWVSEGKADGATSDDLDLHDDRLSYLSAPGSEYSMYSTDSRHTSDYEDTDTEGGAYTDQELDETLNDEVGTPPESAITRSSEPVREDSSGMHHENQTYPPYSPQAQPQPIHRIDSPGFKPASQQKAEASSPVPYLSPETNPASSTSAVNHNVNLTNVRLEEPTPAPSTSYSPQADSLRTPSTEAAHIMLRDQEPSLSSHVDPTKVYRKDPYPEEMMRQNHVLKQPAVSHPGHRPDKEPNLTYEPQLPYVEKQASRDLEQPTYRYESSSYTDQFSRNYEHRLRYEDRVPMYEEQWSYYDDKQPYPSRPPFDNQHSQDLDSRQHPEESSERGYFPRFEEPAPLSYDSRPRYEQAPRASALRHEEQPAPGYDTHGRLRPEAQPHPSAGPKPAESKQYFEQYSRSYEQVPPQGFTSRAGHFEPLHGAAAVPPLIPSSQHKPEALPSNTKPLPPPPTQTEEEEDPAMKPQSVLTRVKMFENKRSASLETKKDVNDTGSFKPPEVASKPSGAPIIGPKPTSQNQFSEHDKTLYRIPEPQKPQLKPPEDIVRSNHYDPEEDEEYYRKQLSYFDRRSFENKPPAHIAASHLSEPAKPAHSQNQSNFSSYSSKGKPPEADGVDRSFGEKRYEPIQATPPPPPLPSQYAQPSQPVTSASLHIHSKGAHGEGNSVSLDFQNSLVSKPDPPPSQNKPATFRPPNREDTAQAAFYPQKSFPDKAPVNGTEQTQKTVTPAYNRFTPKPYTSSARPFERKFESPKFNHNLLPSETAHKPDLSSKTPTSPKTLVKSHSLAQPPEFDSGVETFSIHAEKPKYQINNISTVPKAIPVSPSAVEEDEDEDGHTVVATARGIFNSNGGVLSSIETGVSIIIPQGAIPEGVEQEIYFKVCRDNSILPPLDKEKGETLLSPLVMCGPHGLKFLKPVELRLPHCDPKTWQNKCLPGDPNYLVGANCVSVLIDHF
Chain of UniProt P00346 (whole entry, looked up): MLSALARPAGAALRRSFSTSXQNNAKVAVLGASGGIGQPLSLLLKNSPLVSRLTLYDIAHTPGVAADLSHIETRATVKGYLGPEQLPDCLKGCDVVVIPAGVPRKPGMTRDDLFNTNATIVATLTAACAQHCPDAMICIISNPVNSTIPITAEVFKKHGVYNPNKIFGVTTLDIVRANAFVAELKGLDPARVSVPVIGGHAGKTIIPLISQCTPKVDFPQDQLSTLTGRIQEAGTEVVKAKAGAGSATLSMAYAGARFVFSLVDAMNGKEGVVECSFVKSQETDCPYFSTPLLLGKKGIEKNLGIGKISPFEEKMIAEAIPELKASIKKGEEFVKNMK
Chain of UniProt P42336 (whole entry, looked up): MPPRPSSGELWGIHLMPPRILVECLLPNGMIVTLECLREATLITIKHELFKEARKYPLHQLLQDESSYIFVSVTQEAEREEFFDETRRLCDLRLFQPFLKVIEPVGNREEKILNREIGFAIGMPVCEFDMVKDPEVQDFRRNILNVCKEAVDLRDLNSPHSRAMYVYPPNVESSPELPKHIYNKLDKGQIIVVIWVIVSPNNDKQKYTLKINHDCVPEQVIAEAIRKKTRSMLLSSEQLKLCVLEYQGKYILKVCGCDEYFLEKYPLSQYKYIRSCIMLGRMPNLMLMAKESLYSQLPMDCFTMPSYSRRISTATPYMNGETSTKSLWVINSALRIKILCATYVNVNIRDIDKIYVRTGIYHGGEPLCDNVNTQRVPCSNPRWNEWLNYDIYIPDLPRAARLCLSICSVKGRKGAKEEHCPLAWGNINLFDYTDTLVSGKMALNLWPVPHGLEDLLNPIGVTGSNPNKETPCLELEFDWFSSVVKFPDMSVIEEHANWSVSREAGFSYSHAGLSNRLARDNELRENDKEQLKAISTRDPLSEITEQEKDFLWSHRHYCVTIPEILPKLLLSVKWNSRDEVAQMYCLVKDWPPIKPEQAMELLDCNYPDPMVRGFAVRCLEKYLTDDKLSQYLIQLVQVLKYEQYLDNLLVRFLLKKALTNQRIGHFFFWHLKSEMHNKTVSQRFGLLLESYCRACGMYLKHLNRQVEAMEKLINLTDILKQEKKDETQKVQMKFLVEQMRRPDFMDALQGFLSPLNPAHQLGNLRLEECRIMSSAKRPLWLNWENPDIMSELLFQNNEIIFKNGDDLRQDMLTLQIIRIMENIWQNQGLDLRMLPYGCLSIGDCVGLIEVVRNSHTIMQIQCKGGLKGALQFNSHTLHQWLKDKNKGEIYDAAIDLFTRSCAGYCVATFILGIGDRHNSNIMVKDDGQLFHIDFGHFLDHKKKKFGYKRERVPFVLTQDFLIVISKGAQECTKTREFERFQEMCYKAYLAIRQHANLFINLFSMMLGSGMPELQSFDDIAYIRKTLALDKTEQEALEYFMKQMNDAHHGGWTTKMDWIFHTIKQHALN
Chain of UniProt P68402 (whole entry, looked up): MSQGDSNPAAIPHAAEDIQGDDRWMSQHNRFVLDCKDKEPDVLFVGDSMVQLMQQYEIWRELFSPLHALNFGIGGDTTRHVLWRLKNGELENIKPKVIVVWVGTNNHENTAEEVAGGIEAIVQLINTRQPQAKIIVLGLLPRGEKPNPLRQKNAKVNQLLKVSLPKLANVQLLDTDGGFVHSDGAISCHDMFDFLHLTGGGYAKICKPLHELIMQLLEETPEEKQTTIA

CCc1cccc(CC)c1NC(=O)NC(=N)N
IC50 (4'-phosphopantetheinyl transferase PptT; inhibitor): ≥ 23 µM and > 23 µM

O=C(c1ccc(Cl)cc1)N1CCN2C(=O)N(OC(=O)N3CCOc4ccccc43)C(=O)C2C1 (stereo not drawn)
median ratio (Platelet-activating factor acetylhydrolase IB subunit alpha2 (Homo sapiens, UniProt P68402); enzyme activity, inhibitor, MS-based ABPP; SW-620 conditioned medium; 10 µM, 1 h, 37 °C; relative to: compound over DMSO, lower = stronger inhibition): 1.05

COc1cc(Nc2ncc(F)c(Nc3ccc4c(n3)NC(=O)C(C)(C)O4)n2)cc(OC)c1OC
IC50 (5-hydroxytryptamine receptor 4 (HTR4, Homo sapiens, UniProt Q13639)): > 10 µM

COc1ccc(N2C(=O)N(c3c(C)cccc3Cl)Cc3cnc(Nc4ccc(C5CCN(C)CC5)cc4OC)nc32)nc1
inhibition (Phosphatidylinositol 4,5-bisphosphate 3-kinase catalytic subunit alpha isoform (PIK3CA, Homo sapiens, UniProt P42336); kinase activity, inhibitor; 0.5 µM, kinase PI3K-ALPHA): 6.36%

COc1cc(C=C2C(=O)NC(=S)N(c3cccc(Cl)c3)C2=O)cc(Br)c1O
IC50 (AMC4; enzyme activity, inhibitor; pH 7.5, 50 mM CaCl2, with: VRPR-AMC 50 µM): > 200 µM

CC[C@H](C)[C@@H]1NC(=O)[C@@H]2CCCN2C(=O)[C@H](CC(C)C)NC(=O)[C@H](CC(C)C)NC(=O)CNC(=O)[C@@H](NC(=O)[C@@H](NC(=O)[C@H](CC(=O)O)NC(=O)CNC(=O)[C@@H](NC(=O)[C@H](C)NC(=O)CNC(=O)[C@H](CCCCN)NC(=O)[C@H](CC(C)C)NC(=O)[C@H](CC(C)C)NC(=O)[C@H](CCCCN)NC(=O)CNC(=O)[C@@H](NC(=O)[C@@H](N)CC(C)C)C(C)C)C(C)C)C(C)C)CSSC[C@@H](C(=O)O)NC1=O
log2 fold change (RNA-seq, item: Pik3ap1 mRNA; mouse traumatic brain injury, frontal cortex and hippocampus; dose not given; relative to: TBI plus compound vs TBI): -1.82

O=C1NC(=S)N(c2ccccc2)C(=O)C1=Cc1ccc(O)cc1
IC50 (AMC4; enzyme activity, inhibitor; pH 7.5, 50 mM CaCl2, with: VRPR-AMC 50 µM): > 200 µM

Cc1nc2ccc(CN(C)c3ccc(C(=O)N[C@@H](CCC(=O)O)C(=O)O)s3)cc2c(=O)[nH]1
IC50 (4'-phosphopantetheinyl transferase PptT; enzyme activity, inhibitor, fluorescence polarization): 0.096 µM

CCNC(=NC(=O)OC(C)(C)C)NC(=O)Nc1c(CC)cc(NS(=O)(=O)c2ccccc2)cc1CC
IC50 (4'-phosphopantetheinyl transferase PptT; inhibitor): > 100 µM

C[C@@H](O)[C@@H](CO)NC(=O)[C@@H](CCCNC(=N)N)NC(=O)[C@@H]1CCCN1C(=O)[C@@H]1CSSC[C@H](NC(=O)[C@H](Cc2ccccc2)NC(=O)CN2CCN(CC(=O)O)CCN(CC(=O)O)CCN(CC(=O)O)CC2)C(=O)N[C@@H](Cc2ccc(O)cc2)C(=O)N[C@@H](Cc2ccccc2)C(=O)N[C@@H](CCC(N)=O)C(=O)N[C@@H](CC(N)=O)C(=O)N1 [gallium-68 labelled]
tissue uptake (Wistar rat, healthy, sublingual gland; intravenous, 8 MBq, 120 min, mean): 0.2 %ID/g

CNC(C)C(=O)c1ccc2c(c1)OCO2 (stereo not drawn)
IC50 (Slc6a4; rat): 1.58 ± 0.18 µM

CCc1cccc(CC)c1NC(=O)NC(=N)NC(=O)Nc1c(CC)cccc1CC
IC50 (4'-phosphopantetheinyl transferase PptT; inhibitor): > 100 µM

C[C@H]1CN(c2n[nH]c3nc(N[C@H]4CC[C@H](NS(=O)(=O)CCC(F)(F)F)CC4)ncc23)CCO1
remaining binding (Tight junction protein 1 (TJP1, Homo sapiens, UniProt Q07157); Kinobeads competition, item: TJP1; 20 µM, unit not given; relative to: vehicle): 1.09

CCC(C(=O)c1ccc2c(c1)OCO2)N(C)C (stereo not drawn)
IC50 (Slc6a4; rat): > 10 µM

CCCCC(=O)N(Cc1ccc(-c2ccccc2-c2nnn[nH]2)cc1)[C@H](C(=O)O)C(C)C
IC50 (Succinyl-CoA:glutarate CoA-transferase (SUGCT, Homo sapiens, UniProt Q9HAC7); enzyme activity, inhibitor, fluorometric coupled; pH 7.44, 100 mM Tris-HCl buffer): 16.3 µM

O=C1NC(=S)N(c2ccccc2)C(=O)C1=Cc1ccc(-c2ccc(C(=O)O)c(Cl)c2)o1
IC50 (AMC4; enzyme activity, inhibitor; pH 7.5, 50 mM CaCl2, with: VRPR-AMC 50 µM): > 200 µM

CCNC(=NC#N)NC(=O)Nc1c(CC)cccc1CC
IC50 (4'-phosphopantetheinyl transferase PptT; inhibitor): > 100 µM

C=C(C)[C@@H]1CCC(C)=C[C@H]1c1c(O)cc(CCCCC)c(C(=O)O)c1O
IC50 (Malate dehydrogenase, mitochondrial (MDH2, Sus scrofa, UniProt P00346)): 97 µM

For quick reference, copied from above:
CCC(C(=O)c1ccc2c(c1)OCO2)N(C)C (stereo not drawn)
IC50 (Slc6a4; rat): > 10 µM

CCCCC(=O)N(Cc1ccc(-c2ccccc2-c2nnn[nH]2)cc1)[C@H](C(=O)O)C(C)C
IC50 (Succinyl-CoA:glutarate CoA-transferase (SUGCT, Homo sapiens, UniProt Q9HAC7); enzyme activity, inhibitor, fluorometric coupled; pH 7.44, 100 mM Tris-HCl buffer): 16.3 µM

O=C1NC(=S)N(c2ccccc2)C(=O)C1=Cc1ccc(-c2ccc(C(=O)O)c(Cl)c2)o1
IC50 (AMC4; enzyme activity, inhibitor; pH 7.5, 50 mM CaCl2, with: VRPR-AMC 50 µM): > 200 µM
